Assay results pooled from the literature.
A part holds a random share of what one study measured.

Study 1
Target: Histone acetyltransferase KAT6A, both winged helices, GST fusion (KAT6A, Homo sapiens, UniProt Q92794, residues 1-181)
Technique: protein binding microarray
Form: double-stranded DNA, one strand shown
Sample: in vitro
Tested at: not given
Notes: 8-mer, flanks averaged, mean of 2 arrays, mostly near background
Reference: not given
Direction: higher = stronger binding
Construct (chain): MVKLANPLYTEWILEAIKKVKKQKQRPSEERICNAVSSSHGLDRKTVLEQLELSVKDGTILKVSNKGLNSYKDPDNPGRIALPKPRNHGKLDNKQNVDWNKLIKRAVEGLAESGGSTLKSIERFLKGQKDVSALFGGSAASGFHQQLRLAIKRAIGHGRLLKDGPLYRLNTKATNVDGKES
Sequence | E-score
CAACACTA | -0.008
AACGTTCC | 0.15
GGCCTCCA | 0.0157
CAGTAACC | 0.0166
CGCCTACC | 0.0937
AAGGAGGA | -0.126
AGTATGAA | -0.0441
CTCCGGAC | 0.0689

Study 2
Organism: SARS-CoV-2
Observed: cytopathic effect
Cells: Vero E6
Tested at: 10 µM
SMILES | inhibition [%]
O=C(O)c1ccccc1-c1c2cc(Br)c(=O)cc-2oc2[c]([Hg][OH])c(O)c(Br)cc12 | -49.3
S=C(S)N1CCCC1 | 0.33
O=C1C(=Cc2cccnc2)C(=O)c2ccccc21 | 30.5
CN1CCc2cccc3c2[C@H]1Cc1ccc(O)c(O)c1-3 | 0.22

Study 3
Target: Interferon regulatory factor 5, full length, phosphomimetic (IRF5, Homo sapiens, UniProt Q13568-2, residues 1-514, S451D/S453D/S456D/S462D)
Technique: protein-binding microarray
Form: double-stranded DNA, one strand shown
Sample: in vitro
Tested at: 940 nM top
Notes: 60-bp whole probe
With: salmon DNA 0.4 mg/ml
Reference: random background probes
Direction: higher = stronger binding
Constant ends, left off below: GCCTAGCAC … GTGCTAGGTCTTGATTCGCTTGACGCTGCTG
Sequence | fitted relative affinity
GACGGTATCGGTCTAGGGAC | 8.59 z-score
GACGGTCTCCTACTGGTGAC | -0.417 z-score
TGTCATATACACATCTTCTG | 0.587 z-score
ACCACTCTTCCTTTACTTTC | 2.64 z-score
TTACATTCCAGTTTCGATTA | 9.23 z-score
TCATATATTCATATATAACT | 0.168 z-score
TTAGATTGCAGACTGGATTA | -0.278 z-score
TTAGGTTTCCTTTTCTTTTA | 2.44 z-score

Study 4
Target: Replicase polyprotein 1ab, polymerase (rep, Severe acute respiratory syndrome coronavirus 2, UniProt P0DTD1)
Observed: enzyme activity
Action: inhibitor
Tested at: 20 µM
SMILES | inhibition
CN[C@@H]1[C@H](O)[C@H](NC)[C@H]2O[C@@]3(O)C(=O)C[C@@H](C)O[C@H]3O[C@@H]2[C@H]1O | 19.2%
NS(=O)(=O)c1cc(C2(O)NC(=O)c3ccccc32)ccc1Cl (stereo not drawn) | 1.97%
N#CC(c1ccnc(OCc2ccc(CN3CCOCC3)cc2)n1)c1nc2ccccc2s1 (stereo not drawn) | -3.49%
C=C[C@]1(C)CC[C@@H](C(=C)C)C[C@H]1C(=C)C | -2.11%
CNCc1ccc(C)c(NC(=O)c2ccc(Nc3nc(-c4ccccc4)c4ccccc4n3)cc2)c1 | 13.8%
O=C(O)c1ccccc1NC(=O)N1CCC(c2ccccc2C(F)(F)F)CC1 | -3.45%
CCC(C)(C)C(=O)C(=O)N1CCC[C@H]1C(=O)OCCCc1cccnc1 | -0.56%
O=C(O)Cc1nn(Cc2nc3cc(C(F)(F)F)ccc3s2)c(=O)c2ccccc12 | 0.79%
COC(=O)CCC(=O)CN | -0.48%
CC(C)C[C@H](N)C(=O)O | 1.21%
CC#C[C@]1(O)CC[C@H]2[C@@H]3CCC4=CC(=O)CCC4=C3[C@@H](c3ccc(N(C)C)cc3)C[C@@]21C | 3.93%
CCCCCCCC/C=C/C(=O)O | 2.13%
CC(C)Oc1ccc2c(=O)c(-c3ccccc3)coc2c1 | 7.35%
CC[C@@H](c1ccc(F)c(F)c1)n1c(C(=O)OC)c(-c2ccno2)[nH]c1=S | 1.88%
Cc1cc(Cn2cnc3c2C[C@@H](C(=O)O)N(C(=O)C(c2ccccc2)c2ccccc2)C3)ccc1N(C)C | -0.51%
CCOC(=O)[C@H](CCc1ccccc1)N[C@@H](C)C(=O)N1C(=O)N(C)C[C@H]1C(=O)O | -2.21%
CN(C)Cc1cccc(N=C(c2ccccc2)c2c(O)[nH]c3cc(C(=O)N(C)C)ccc23)c1 | -0.55%
N[C@@H](C(=O)N[C@@H]1C(=O)N2C(C(=O)O)=C(Cl)CC[C@H]12)c1ccccc1 | -1.62%
O=Nc1c(O)[nH]c2c(Cl)c(Cl)ccc12 | -1.12%
CN(C)CCc1ccc(O)cc1 | 2.31%
C=CC(=O)N1CCC(Oc2cc3c(Nc4ccc(Cl)c(Cl)c4F)ncnc3cc2OC)CC1 | 0.12%
Clc1ccc(C2=CCC[C@@H]3CC[C@H]2N3)cn1 | -7.53%
CN(C)CC/C=C1/c2ccccc2Sc2ccc(Cl)cc21 | -3.38%
O=c1oc2cc(O)ccc2s1 | 5.12%
COc1cc2c(cc1OC)[C@@H]1Cc3ccc(OC)c(OC)c3CN1CC2 | -2.03%

Study 5
Target: Sal-like protein 4, full length isoform A (SALL4, Homo sapiens, UniProt Q9UJQ4, residues 1-1053)
Chain of UniProt Q9UJQ4 (whole entry, looked up): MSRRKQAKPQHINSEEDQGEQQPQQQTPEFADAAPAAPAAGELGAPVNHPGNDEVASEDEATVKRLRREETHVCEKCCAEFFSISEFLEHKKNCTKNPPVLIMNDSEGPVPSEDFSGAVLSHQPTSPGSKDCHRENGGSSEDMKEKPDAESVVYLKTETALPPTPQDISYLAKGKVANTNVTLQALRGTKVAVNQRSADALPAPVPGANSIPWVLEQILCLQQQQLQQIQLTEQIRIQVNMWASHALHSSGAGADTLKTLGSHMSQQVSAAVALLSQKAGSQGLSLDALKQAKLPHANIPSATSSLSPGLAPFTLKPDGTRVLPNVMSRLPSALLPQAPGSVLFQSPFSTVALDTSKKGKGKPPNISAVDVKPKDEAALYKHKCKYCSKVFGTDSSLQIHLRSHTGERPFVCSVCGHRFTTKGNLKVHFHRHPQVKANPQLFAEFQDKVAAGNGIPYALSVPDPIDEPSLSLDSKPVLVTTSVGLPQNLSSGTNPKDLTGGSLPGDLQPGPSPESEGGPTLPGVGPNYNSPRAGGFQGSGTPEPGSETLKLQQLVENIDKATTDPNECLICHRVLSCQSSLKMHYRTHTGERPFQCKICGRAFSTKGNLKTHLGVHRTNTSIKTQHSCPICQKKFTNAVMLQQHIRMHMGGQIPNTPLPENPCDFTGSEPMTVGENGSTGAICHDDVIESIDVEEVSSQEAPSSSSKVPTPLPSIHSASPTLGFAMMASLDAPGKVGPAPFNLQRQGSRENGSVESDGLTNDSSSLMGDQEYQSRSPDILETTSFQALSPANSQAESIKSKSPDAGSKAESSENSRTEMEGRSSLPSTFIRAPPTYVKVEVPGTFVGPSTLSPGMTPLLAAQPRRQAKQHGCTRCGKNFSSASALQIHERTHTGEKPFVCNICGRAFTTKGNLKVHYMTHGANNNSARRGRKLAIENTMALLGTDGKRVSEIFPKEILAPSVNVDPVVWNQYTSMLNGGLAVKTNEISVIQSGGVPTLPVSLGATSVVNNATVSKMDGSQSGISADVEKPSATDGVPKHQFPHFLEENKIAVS
Technique: universal PBM
Form: double-stranded DNA, one strand shown
Sample: in vitro
Tested at: 600 nM
Notes: 8-mer, flanks averaged, mean of replicates
Direction: higher = stronger binding
Sequence | E-score
CAGCGGTA | -0.0451
CACTTTCA | 0.0933
CAGCTCAC | -0.16
GAACTATC | -0.00131
AAAGCATC | 0.0882
CAACCCTC | -0.242
CACGTTTA | 0.21
CCCAAGCA | -0.00228

Study 6
Cell line: HEK-293T/ACE2
Tested at: concentration not given
Time: 16 (unit not given)
Reference: vehicle
SMILES | viability [%]
COC(=O)N[C@H](C(=O)N1CCC[C@H]1c1nc(-c2ccc(-c3ccc(-c4c[nH]c([C@@H]5CCCN5C(=O)[C@@H](NC(=O)OC)C(C)C)n4)cc3)cc2)c[nH]1)C(C)C | 104
CCCCCCCCCC(=O)O[C@H]1CC[C@H]2[C@@H]3CCC4=CC(=O)CC[C@@H]4[C@H]3CC[C@]12C | 104
CCn1cc(C(=O)O)c(=O)c2cc(F)c(N3CCNCC3)nc21 | 96.3
Cc1ccc(Nc2nccc(N(C)c3ccc4c(C)n(C)nc4c3)n2)cc1S(N)(=O)=O | 88.2

Some of these lines once more (study 4):
SMILES | inhibition
CC[C@@H](c1ccc(F)c(F)c1)n1c(C(=O)OC)c(-c2ccno2)[nH]c1=S | 1.88%
Cc1cc(Cn2cnc3c2C[C@@H](C(=O)O)N(C(=O)C(c2ccccc2)c2ccccc2)C3)ccc1N(C)C | -0.51%
CCOC(=O)[C@H](CCc1ccccc1)N[C@@H](C)C(=O)N1C(=O)N(C)C[C@H]1C(=O)O | -2.21%
CN(C)Cc1cccc(N=C(c2ccccc2)c2c(O)[nH]c3cc(C(=O)N(C)C)ccc23)c1 | -0.55%
N[C@@H](C(=O)N[C@@H]1C(=O)N2C(C(=O)O)=C(Cl)CC[C@H]12)c1ccccc1 | -1.62%
O=Nc1c(O)[nH]c2c(Cl)c(Cl)ccc12 | -1.12%
